Experimental data collected from several papers.
Lines come from different studies, so protocols differ. ± marks the error that the study gave.
Tumor necrosis factor receptor superfamily member 9/Nectin-4: Tumor necrosis factor receptor superfamily member 9/Nectin-4 (Homo sapiens, UniProt Q07011+Q96NY8)
Sequence of UniProt Q07011 (whole entry, looked up): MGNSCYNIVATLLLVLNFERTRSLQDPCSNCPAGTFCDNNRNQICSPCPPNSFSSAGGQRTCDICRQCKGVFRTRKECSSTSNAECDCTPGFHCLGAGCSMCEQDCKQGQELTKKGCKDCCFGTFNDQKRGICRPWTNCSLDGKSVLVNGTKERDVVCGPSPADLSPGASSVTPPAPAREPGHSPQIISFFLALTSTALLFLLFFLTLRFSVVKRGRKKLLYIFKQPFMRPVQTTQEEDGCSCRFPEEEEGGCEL
Sequence of UniProt Q96NY8 (whole entry, looked up): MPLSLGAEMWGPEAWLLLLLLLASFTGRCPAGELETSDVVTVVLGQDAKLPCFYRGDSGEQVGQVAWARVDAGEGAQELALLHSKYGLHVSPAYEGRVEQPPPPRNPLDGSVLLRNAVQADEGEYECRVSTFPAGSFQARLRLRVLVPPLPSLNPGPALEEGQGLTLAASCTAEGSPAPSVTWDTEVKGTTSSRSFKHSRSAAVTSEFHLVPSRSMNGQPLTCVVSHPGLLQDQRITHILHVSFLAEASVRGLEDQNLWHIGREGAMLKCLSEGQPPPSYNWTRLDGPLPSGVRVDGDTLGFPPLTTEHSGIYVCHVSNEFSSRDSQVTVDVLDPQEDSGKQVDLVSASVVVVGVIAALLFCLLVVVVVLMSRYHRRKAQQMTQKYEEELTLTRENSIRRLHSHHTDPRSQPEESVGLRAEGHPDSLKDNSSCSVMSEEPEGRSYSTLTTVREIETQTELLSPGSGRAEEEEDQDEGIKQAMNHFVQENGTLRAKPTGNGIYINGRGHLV
sdiA: Regulatory protein SdiA (sdiA, Escherichia coli, UniProt P07026)
Sequence of UniProt P07026 (whole entry, looked up): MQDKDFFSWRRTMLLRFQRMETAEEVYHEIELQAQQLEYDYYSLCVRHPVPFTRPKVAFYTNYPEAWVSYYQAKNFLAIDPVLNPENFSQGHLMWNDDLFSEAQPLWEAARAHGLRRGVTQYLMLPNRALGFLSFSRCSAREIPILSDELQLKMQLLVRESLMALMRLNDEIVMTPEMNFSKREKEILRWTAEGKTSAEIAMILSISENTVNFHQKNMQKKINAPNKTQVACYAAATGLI
Sequence of UniProt Q704Y3 (whole entry, unmodified, looked up): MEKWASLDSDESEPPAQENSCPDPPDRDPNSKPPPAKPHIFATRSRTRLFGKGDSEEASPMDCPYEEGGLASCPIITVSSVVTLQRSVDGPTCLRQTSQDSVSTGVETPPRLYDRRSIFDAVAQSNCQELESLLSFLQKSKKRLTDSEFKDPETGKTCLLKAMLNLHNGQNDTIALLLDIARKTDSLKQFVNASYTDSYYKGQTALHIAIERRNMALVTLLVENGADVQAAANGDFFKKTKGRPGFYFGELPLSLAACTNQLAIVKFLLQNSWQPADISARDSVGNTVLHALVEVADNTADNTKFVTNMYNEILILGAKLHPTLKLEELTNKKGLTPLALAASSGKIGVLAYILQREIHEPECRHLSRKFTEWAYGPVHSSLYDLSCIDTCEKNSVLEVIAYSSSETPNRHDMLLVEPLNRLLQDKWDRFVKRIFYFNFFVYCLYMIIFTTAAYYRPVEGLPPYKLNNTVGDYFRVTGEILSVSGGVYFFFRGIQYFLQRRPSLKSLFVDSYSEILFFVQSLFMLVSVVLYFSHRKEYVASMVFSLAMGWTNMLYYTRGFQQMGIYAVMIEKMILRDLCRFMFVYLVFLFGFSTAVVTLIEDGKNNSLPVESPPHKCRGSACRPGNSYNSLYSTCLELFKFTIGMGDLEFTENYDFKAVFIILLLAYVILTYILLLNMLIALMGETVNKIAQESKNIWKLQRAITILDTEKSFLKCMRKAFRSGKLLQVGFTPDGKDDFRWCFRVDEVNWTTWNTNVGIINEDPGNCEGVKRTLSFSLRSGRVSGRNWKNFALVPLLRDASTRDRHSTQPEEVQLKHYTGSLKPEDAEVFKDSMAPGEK
Sequence of UniProt P07700 (whole entry, unmodified, looked up): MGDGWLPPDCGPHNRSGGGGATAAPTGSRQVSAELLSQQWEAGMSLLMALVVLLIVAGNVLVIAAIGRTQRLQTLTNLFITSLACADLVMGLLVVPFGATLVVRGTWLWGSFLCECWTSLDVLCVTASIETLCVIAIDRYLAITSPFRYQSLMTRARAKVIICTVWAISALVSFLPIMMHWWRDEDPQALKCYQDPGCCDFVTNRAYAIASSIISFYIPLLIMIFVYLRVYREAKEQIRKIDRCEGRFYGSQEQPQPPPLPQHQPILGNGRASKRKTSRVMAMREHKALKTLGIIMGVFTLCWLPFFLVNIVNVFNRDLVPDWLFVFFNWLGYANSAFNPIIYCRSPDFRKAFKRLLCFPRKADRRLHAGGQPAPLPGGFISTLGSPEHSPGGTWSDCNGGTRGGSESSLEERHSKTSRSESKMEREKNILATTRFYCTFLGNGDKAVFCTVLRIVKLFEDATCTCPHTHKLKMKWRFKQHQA
Sequence of UniProt P03372 (whole entry, looked up): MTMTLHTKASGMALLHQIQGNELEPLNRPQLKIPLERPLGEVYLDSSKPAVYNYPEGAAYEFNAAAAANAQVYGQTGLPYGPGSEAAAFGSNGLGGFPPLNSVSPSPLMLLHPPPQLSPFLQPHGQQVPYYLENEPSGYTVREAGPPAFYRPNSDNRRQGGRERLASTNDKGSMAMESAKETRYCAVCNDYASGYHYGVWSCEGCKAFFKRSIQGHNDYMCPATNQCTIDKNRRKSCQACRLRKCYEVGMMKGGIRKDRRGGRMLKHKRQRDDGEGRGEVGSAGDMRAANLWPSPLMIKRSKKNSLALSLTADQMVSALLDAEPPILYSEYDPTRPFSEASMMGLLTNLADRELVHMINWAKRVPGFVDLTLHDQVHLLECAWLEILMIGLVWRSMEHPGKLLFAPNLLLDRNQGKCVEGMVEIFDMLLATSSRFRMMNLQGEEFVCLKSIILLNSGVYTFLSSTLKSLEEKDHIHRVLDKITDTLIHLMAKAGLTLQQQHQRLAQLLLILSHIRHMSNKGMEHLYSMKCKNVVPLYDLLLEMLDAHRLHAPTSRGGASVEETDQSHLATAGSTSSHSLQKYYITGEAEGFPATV
Sequence of UniProt O60674 (whole entry, looked up): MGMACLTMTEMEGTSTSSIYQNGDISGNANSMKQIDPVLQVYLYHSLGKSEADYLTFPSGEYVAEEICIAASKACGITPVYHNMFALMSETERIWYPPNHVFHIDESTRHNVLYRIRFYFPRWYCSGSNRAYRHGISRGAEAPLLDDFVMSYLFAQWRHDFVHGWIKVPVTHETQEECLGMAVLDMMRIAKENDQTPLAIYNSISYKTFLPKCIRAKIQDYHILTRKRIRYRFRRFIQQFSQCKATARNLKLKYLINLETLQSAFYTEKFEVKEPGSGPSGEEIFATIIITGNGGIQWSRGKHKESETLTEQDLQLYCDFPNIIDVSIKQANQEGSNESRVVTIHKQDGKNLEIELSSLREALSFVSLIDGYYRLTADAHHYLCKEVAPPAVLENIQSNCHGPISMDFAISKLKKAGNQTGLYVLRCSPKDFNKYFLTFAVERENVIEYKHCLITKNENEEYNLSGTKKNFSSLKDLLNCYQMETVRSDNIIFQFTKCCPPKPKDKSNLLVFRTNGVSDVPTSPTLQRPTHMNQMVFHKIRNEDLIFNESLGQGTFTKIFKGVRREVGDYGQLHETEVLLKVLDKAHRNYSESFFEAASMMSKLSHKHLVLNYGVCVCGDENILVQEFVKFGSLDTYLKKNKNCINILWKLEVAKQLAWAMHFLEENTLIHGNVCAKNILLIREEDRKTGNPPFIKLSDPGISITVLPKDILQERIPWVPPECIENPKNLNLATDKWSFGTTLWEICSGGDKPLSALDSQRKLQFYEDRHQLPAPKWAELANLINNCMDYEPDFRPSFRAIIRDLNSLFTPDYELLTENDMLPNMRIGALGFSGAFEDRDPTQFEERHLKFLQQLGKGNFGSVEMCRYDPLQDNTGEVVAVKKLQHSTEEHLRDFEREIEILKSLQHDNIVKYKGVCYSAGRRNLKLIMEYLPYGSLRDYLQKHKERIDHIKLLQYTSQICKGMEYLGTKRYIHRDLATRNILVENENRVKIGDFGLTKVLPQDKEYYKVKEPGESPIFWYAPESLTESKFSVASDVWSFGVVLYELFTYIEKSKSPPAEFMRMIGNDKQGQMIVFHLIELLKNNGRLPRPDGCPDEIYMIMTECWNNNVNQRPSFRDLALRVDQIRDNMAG
Sequence of UniProt P01899 (whole entry, looked up): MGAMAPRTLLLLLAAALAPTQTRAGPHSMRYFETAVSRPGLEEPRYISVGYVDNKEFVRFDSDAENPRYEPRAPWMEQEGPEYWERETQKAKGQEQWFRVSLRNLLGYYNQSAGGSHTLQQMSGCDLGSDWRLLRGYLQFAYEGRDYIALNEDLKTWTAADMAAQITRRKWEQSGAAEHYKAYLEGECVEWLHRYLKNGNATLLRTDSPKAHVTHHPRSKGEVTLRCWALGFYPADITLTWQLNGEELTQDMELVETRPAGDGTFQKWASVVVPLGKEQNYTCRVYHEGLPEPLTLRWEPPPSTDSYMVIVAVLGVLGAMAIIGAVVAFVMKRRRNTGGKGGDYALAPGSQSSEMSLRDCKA

| Compound | target or system | test | system | setting | how to read | quantity | value |
| --- | --- | --- | --- | --- | --- | --- | --- |
| C=CC(O)CCCCC (stereo not drawn) | GPRor8 (Aedes aegypti, UniProt Q16MN0) | ion current, agonist, two-electrode voltage clamp | Xenopus oocytes | – | – | EC50 | 2140 nM |
| CCCC[C@@H]1NC(=O)[C@H](Cc2ccc(O)cc2)NC(=O)[C@@H]2CCCN2C(=O)[C@H](CC(=O)O)NC(=O)[C@H](C)NC(=O)[C@H](Cc2ccccc2)NC(=O)[C@@H]2CSCCC(=O)N3CN(CN(C3)C(=O)CCSC[C@@H](C(=O)N[C@@H](C)C(N)=O)NC1=O)C(=O)CCSC[C@H](NC(C)=O)C(=O)N[C@@H](CC(C)(C)C)C(=O)N1CCC[C@H]1C(=O)N[C@@H](CCC(=O)O)C(=O)N[C@H](CCCCNC(=O)CCc1cn(CCOCCOCCOCCOCCOCCC(=O)N[C@H]3CSCCC(=O)N4CN5CN(C4)C(=O)CCSC[C@H](NC(=O)[C@@H](CCC(=O)O)NC(=O)[C@H](Cc4cccc6ccccc46)NC(=O)[C@@H]4CCCN4C3=O)C(=O)N[C@@H](CC(C)C)C(=O)N[C@@H](CCCCNC(=N)N)C(=O)N[C@@H](CC(=O)O)C(=O)N[C@@H](Cc3c[nH]c4ccccc34)C(=O)N[C@@H](CO)C(=O)N[C@@H]([C@@H](C)O)C(=O)N3CCC[C@H]3C(=O)N3C[C@H](O)C[C@H]3C(=O)N[C@@H](Cc3c[nH]c4ccccc34)C(=O)N[C@H](C(N)=O)CSCCC5=O)nn1)C(=O)N1CCC[C@H]1C(=O)N[C@@H](Cc1ccc(O)cc1)C(=O)N2 | Tumor necrosis factor receptor superfamily member 9/Nectin-4 | reporter gene, agonist | HT-1376 coculture with reporter cells | – | – | EC50 | 2.21 nM |
| COc1ccc(C[C@@H](C)NC[C@H](O)c2ccc(O)c3[nH]c(=O)ccc23)cc1 | ADRB1 (Meleagris gallopavo, UniProt P07700, C116L/C358A/del244-271/del277-278) | CRE-SPAP reporter gene, agonist | CHO cells | – | – | EC50 | 0.676 nM |
| CC[C@H](C)[C@H](NC(=O)[C@H](C)NC(=O)[C@@H](NC(=O)[C@@H](NC(=O)[C@H](C)NC(=O)[C@H](C)NC(=O)[C@H](Cc1c[nH]c2ccccc12)NC(=O)[C@@H](NC(=O)[C@H](CO)NC(=O)[C@@H](N)CO)C(C)C)[C@@H](C)O)[C@@H](C)O)C(=O)O | H-2 class I histocompatibility antigen, D-B alpha chain, 17 (H2-D1, Mus musculus, UniProt P01899) | H-2D stabilisation, flow cytometry | RMA-S TAP-deficient | overnight | – | EC50 | 60000 nM |
| CCCC[C@@H]1NC(=O)[C@H](Cc2ccc(O)cc2)NC(=O)[C@@H]2CCCN2C(=O)[C@H](CC(=O)O)NC(=O)[C@H](C)NC(=O)[C@H](Cc2ccccc2)NC(=O)[C@@H]2CSCCC(=O)N3CN(CN(C3)C(=O)CCSCCC(=O)N[C@@H](CC(C)(C)C)C(=O)N3CCC[C@H]3C(=O)N[C@@H](CCC(=O)O)C(=O)N[C@H](CCCCNC(=O)CCc3cn(CCOCCOCCOCCN(CCOCCOCCOCCC(=O)N[C@H]4CSCCC(=O)N5CN6CN(C5)C(=O)CCSC[C@H](NC(=O)[C@@H](CC(=O)O)NC(=O)[C@H](Cc5cccc7ccccc57)NC(=O)[C@@H]5CCCN5C4=O)C(=O)N[C@@H](CCSC)C(=O)N[C@@H](CCCCNC(=N)N)C(=O)N[C@@H](CC(=O)O)C(=O)N[C@@H](Cc4c[nH]c5ccccc45)C(=O)N[C@@H](CO)C(=O)N[C@@H]([C@@H](C)O)C(=O)N4CCC[C@H]4C(=O)N4C[C@H](O)C[C@H]4C(=O)N[C@@H](Cc4c[nH]c5ccccc45)C(=O)N[C@H](C(N)=O)CSCCC6=O)CCOCCOCCOCCn4cc(CCC(=O)NCCCC[C@H]5NC(=O)[C@H](CCC(=O)O)NC(=O)[C@@H]6CCCN6C(=O)[C@H](CC(C)(C)C)NC(=O)CCSCCC(=O)N6CN7CN(C6)C(=O)CCSC[C@H](NC(=O)[C@H](Cc6ccc(O)cc6)NC(=O)[C@@H]6CCCN6C5=O)C(=O)N[C@@H](Cc5ccccc5)C(=O)N[C@@H](C)C(=O)N[C@@H](CC(=O)O)C(=O)N5CCC[C@H]5C(=O)N[C@@H](Cc5ccc(O)cc5)C(=O)N[C@@H](CCCC)C(=O)NCCSCCC7=O)nn4)nn3)C(=O)N3CCC[C@H]3C(=O)N[C@@H](Cc3ccc(O)cc3)C(=O)N2)C(=O)CCSCCNC1=O | Tumor necrosis factor receptor superfamily member 9/Nectin-4 | reporter gene, agonist | HT-1376 coculture with reporter cells | – | – | EC50 | 0.82 nM |
| C[C@H]1CN(c2n[nH]c3nc(N[C@H]4CC[C@H](NS(=O)(=O)CCC(F)(F)F)CC4)ncc23)CCO1 | Tyrosine-protein kinase JAK2 (JAK2, Homo sapiens, UniProt O60674) | inhibitor, Kinobeads competition profiling | – | 20 µM | relative to: vehicle | relative abundance | 1.14 |
| CCCCOCCOP(=O)(OCCOCCCC)OCCOCCCC | Estrogen receptor (ESR1, Homo sapiens, UniProt P03372) | – | human cells | – | – | EC50 | > 100000 nM |
| Cc1oc(-c2cccc(Cl)c2)nc1CN1CCCC(C(=O)NCCc2ccc(Cl)cc2)C1 (stereo not drawn) | Vero-E6 | CellTiter-Glo ATP | – | 72 h, first round 5-point | relative to: DMSO 0%, hyamine -100%, more negative, more toxic | maximum response | -18.6% |
| CCCCCC(=O)CC(=O)N[C@H]1CCOC1=O | sdiA | – | – | – | – | EC50 | 0.78 nM |
| CCCCC/C=C\C/C=C\C/C=C\C/C=C\CCCC(=O)NCCO | Transient receptor potential cation channel subfamily V member 1 (Trpv1, Mus musculus, UniProt Q704Y3, N552L) | ion current, agonist, whole-cell patch clamp | – | 24 °C, N552L, +80 mV | – | EC50 | 6610 ± 2350 nM |
| Cc1ccc2nc(C3CCCN(Cc4cccc(-c5cccnc5)c4)C3)[nH]c(=O)c2c1 (stereo not drawn) | Vero-E6 | CellTiter-Glo ATP | – | 72 h, second round 5-point | relative to: DMSO 0%, hyamine -100%, more negative, more toxic | maximum response | -1.41% |
| CCCCCC(=O)N[C@H]1CCOC1=O | sdiA | – | – | – | – | EC50 | 2.46 nM |

Some of these lines once more:
| Compound | target or system | test | system | setting | how to read | quantity | value |
| --- | --- | --- | --- | --- | --- | --- | --- |
| C=CC(O)CCCCC (stereo not drawn) | GPRor8 (Aedes aegypti, UniProt Q16MN0) | ion current, agonist, two-electrode voltage clamp | Xenopus oocytes | – | – | EC50 | 2140 nM |
| CCCC[C@@H]1NC(=O)[C@H](Cc2ccc(O)cc2)NC(=O)[C@@H]2CCCN2C(=O)[C@H](CC(=O)O)NC(=O)[C@H](C)NC(=O)[C@H](Cc2ccccc2)NC(=O)[C@@H]2CSCCC(=O)N3CN(CN(C3)C(=O)CCSC[C@@H](C(=O)N[C@@H](C)C(N)=O)NC1=O)C(=O)CCSC[C@H](NC(C)=O)C(=O)N[C@@H](CC(C)(C)C)C(=O)N1CCC[C@H]1C(=O)N[C@@H](CCC(=O)O)C(=O)N[C@H](CCCCNC(=O)CCc1cn(CCOCCOCCOCCOCCOCCC(=O)N[C@H]3CSCCC(=O)N4CN5CN(C4)C(=O)CCSC[C@H](NC(=O)[C@@H](CCC(=O)O)NC(=O)[C@H](Cc4cccc6ccccc46)NC(=O)[C@@H]4CCCN4C3=O)C(=O)N[C@@H](CC(C)C)C(=O)N[C@@H](CCCCNC(=N)N)C(=O)N[C@@H](CC(=O)O)C(=O)N[C@@H](Cc3c[nH]c4ccccc34)C(=O)N[C@@H](CO)C(=O)N[C@@H]([C@@H](C)O)C(=O)N3CCC[C@H]3C(=O)N3C[C@H](O)C[C@H]3C(=O)N[C@@H](Cc3c[nH]c4ccccc34)C(=O)N[C@H](C(N)=O)CSCCC5=O)nn1)C(=O)N1CCC[C@H]1C(=O)N[C@@H](Cc1ccc(O)cc1)C(=O)N2 | Tumor necrosis factor receptor superfamily member 9/Nectin-4 | reporter gene, agonist | HT-1376 coculture with reporter cells | – | – | EC50 | 2.21 nM |
